# Published values from different studies.
# Each line is one published result; not all experiments were run side by side. ± gives the spread as reported.
Compound,assay,test system,conditions,scale,endpoint,value
CC(C)[C@H](NC(=O)[C@@H]1CCCN1C(=O)[C@H](CCCNC(=N)N)NC(=O)[C@H](CS)NC(=O)[C@H](Cc1c[nH]c2ccccc12)NC(=O)[C@H](CCCNC(=N)N)NC(=O)[C@@H](Cc1ccccc1)NC(=O)[C@H](Cc1c[nH]cn1)NC(=O)[C@H](CCC(=O)O)NC(=O)[C@H](CS)NC(=O)[C@H](CS)NC(=O)[C@@H]1CC(=O)N[C@@H](CCCNC(=N)N)C(=O)NCC(=O)N[C@@H](CC(=O)O)C(=O)N[C@H](Cc2ccc(O)cc2)C(=O)N1)C(N)=O [technetium-99m labelled],,"C57 mouse, female, B16/F1 melanoma","intravenous, 0.037 MBq, 4 h",relative to: tumour over kidneys,tumour to tissue ratio,0.76
Cc1ccc(OCC(=O)O)cc1,,"Sprague-Dawley rat, male, plasma","oral gavage, 30 mg/kg of parent drug",,Tmax,1.38 h
CC(C)(O)c1ncc([S@](N)(=O)=NC(=O)Nc2c3c(cc4c2CCC4)CCC3)s1,,"healthy human, fasted","oral, 300 mg single dose, capsule formulation",,AUC(0-last)/dose,210 ng·h/mL/mg
N#Cc1cnc2cc(OCC3CCNCC3)c(F)cc2c1Nc1cc(F)c(OCc2cccc(Cl)n2)cc1Cl,,"male beagle dog, plasma","oral, 5 mg/kg",,AUC(0-t),1450 ng·h/mL
C=C(c1cc(F)c(C(=O)O)c(F)c1)c1cc2c(cc1C)C(C)(C)CCC2(C)C,,"Sprague-Dawley rat, male, plasma","oral, 100 mg/kg, 1 h, sesame oil vehicle",,HDL level,109 ± 11.8 mg/dL
C#CCOc1ccc(/C=C2\SC(=O)N(CC(=O)NCc3ccccc3)C2=O)cc1,inverse Kirkwood-Buff integrals,binary solvent mixture,"298.15 K, mole fraction x1 0.30",,"Kirkwood-Buff integral G2,3",-393 cm³/mol
OC1(C(F)(F)F)CCN(c2nc(Nc3ccnc(C(F)(F)F)c3)nc(-c3cccc(C(F)(F)F)n3)n2)C1 (stereo not drawn),,"rat Sprague-Dawley, plasma","0.5, 5 and 50 µM, 6 h",,unbound fraction,< 0.005
Cn1c(=O)oc2ccc(-c3ccc(CC(C#N)NC(=O)C4CNCCCO4)c(F)c3)cc21 (stereo not drawn),,human,"oral, 40 mg once daily, TEAE, multiple ascending dose",,chest pain incidence,0%
Cc1ccc(-c2ccc(-c3cc4sccc4o3)cn2)nc1,TCSPC,dioxane,,,radiative decay rate constant,0.53 ns⁻¹
C[C@H](NC(=O)COC(=O)[C@H](C)NC(=O)CO)C(=O)O,,water,"pH 4, 50 °C",,depolymerization half-life,26.1 h
Cc1ncc2c(n1)CN(C(=O)Nc1nc(-c3cccs3)ccc1N)C2,,"male beagle dog, plasma","oral, 120 mg/kg, multiple doses, once daily",,AUC,25000 ng·h/mL
COC(=O)c1ccc2c(c1)NC(=O)/C2=C(\Nc1ccc2c(c1)CCN2C(=O)CN1CCOCC1)c1ccccc1,,"beagle dog, plasma","oral, 50 mg/kg, suspension",,AUC(0-t),5180 ng·h/mL
CCCC[C@@H]1NC(=O)[C@@H](NC(=O)[C@H](CCC(=O)O)NC(=O)CNC(=O)CN2CCN(CC(=O)O)CCN(CC(=O)O)CCN(CC(=O)O)CC2)CCCCNC(=O)C[C@@H](C(N)=O)NC(=O)[C@H](C(C)C)NC(=O)[C@@H]2CCCN2C(=O)[C@H](CCCNC(=N)N)NC(=O)CNC(=O)[C@H](Cc2c[nH]c3ccccc23)NC(=O)[C@H](CCCNC(=N)N)NC(=O)[C@@H](Cc2ccccc2)NC(=O)[C@H](Cc2c[nH]cn2)NC(=O)[C@H](CCC(=O)O)NC1=O [gallium-67 labelled],,"C57 mice, B16/F1 flank melanoma, intestine","intravenous, 0.037 MBq/mouse, 4 h",,intestine uptake,0.35 ± 0.16 %ID
CC12N3Cc4c(c(OCCCS(=O)(=O)[O-])c5ccccc5c4OCCCS(=O)(=O)[O-])CN1C(=O)N1CN4C(=O)N5Cc6c(c(OCCCS(=O)(=O)[O-])c7ccccc7c6OCCCS(=O)(=O)[O-])CN6C(=O)N(CN(C3=O)C12C)C4(C)C65C.[Na+].[Na+].[Na+].[Na+] (stereo not drawn),,,"pD 7.4, with: camptothecin",,phase solubility slope,0.087 ± 0.0012
CC(C)(Sc1cc[n+]([O-])cc1-c1ccc(C#N)c2ccccc12)C(=O)OC1OC(C(=O)O)C(O)C(O)C1O (stereo not drawn),,plasma,"oral, 15 mg, normal renal function, fasted",,terminal half-life,14.4 h

# For quick reference, copied from above:
Compound,assay,test system,conditions,scale,endpoint,value
C=C(c1cc(F)c(C(=O)O)c(F)c1)c1cc2c(cc1C)C(C)(C)CCC2(C)C,,"Sprague-Dawley rat, male, plasma","oral, 100 mg/kg, 1 h, sesame oil vehicle",,HDL level,109 ± 11.8 mg/dL
